Measured values from different studies.
Each numbered part is a random draw from the data of one study; scales do not carry over between parts.

Set 1 — technique: protein binding microarray; form: double-stranded DNA, one strand shown; medium: in vitro; tested at: not given; reference: not given; reading: higher = stronger binding; quantity: E-score
Target: Histone acetyltransferase KAT6A, both winged helices, GST fusion (KAT6A, Homo sapiens, UniProt Q92794, residues 1-181)
Setting: 8-mer, flanks averaged, mean of 2 arrays, mostly near background
Residues (chain): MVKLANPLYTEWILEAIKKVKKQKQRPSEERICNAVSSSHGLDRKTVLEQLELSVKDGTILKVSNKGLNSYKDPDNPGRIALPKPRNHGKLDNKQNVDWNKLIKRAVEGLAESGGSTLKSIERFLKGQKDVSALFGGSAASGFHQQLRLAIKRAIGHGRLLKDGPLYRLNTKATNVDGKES
Oligonucleotide = GCATAGAC; value = 0.0779
Oligonucleotide = CGCGTGAG; value = 0.254
Oligonucleotide = AAGACCGA; value = 0.137
Oligonucleotide = AGTGAGGC; value = -0.175
Oligonucleotide = ATCTGGTC; value = -0.105
Oligonucleotide = AACGCCTG; value = -0.094
Oligonucleotide = TACTTCGA; value = 0.07
Oligonucleotide = CACAGCAG; value = -0.149
Oligonucleotide = GCATAGCA; value = -0.0328
Oligonucleotide = CCGTGTGC; value = 0.192
Oligonucleotide = GGGCTCAA; value = 0.038
Oligonucleotide = AGTTTAGA; value = -0.214
Oligonucleotide = ATTCAGGC; value = -0.124
Oligonucleotide = AGATTTAC; value = -0.127
Oligonucleotide = ACTCATGG; value = -0.0716
Oligonucleotide = CTGAACTA; value = -0.00997
Oligonucleotide = CTTAAAAA; value = -0.172
Oligonucleotide = TATACCGA; value = 0.087
Oligonucleotide = ATACTACC; value = 0.0293

Set 2 — technique: RNA Bind-n-Seq; form: RNA; medium: in vitro; tested at: 365 nM; reference: no-protein control; reading: higher = stronger binding; quantity: RBNS enrichment (R)
Target: RNA binding protein fox-1 homolog 2, RRM domain, GST-SBP tag (RBFOX2, Homo sapiens, UniProt O43251-10, residues 100-194)
Setting: natural RNA segment, single round, ends assumed
Shared flanks, not repeated: GGGAGUUCUACAGUCCGACGAUC … UGGAAUUCUCGGGUGCCAA
Residues (chain): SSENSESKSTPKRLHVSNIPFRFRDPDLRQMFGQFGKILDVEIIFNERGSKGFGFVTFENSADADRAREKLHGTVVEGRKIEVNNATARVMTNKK
Oligonucleotide = AUCUCUGACCCAAUGAGAAAGAGACACUCAUCUCUGGGAAAUGUGCCUCUCUGGAAUCUCCAUCCCAACCAUUUCCUGUUCUUGGGAAGGUCCUACGGGCUUCAGAAUCU; value = 0.232
Oligonucleotide = ACAUAUGUAUUGUUAAUUAUAAAUAUAGAUAAGUAAUGACAUAAUAGAUGAAAAAGUCUUAUUCAGAUGUAUCACAUUCAUUUUACAUUACCCACCUAUUGUCGCAUGGU; value = 0.573
Oligonucleotide = UUAAAUGAUGUAAUUCCCACUGUAAUAGCAUAGGGAUUUUGGAAGCAGCUGCUGGUGGCUUGGGACAUCAGUGGGGCCAAGGGUUCUCUGUCCCUGGUUCAACUGUGAUU; value = 0.657
Oligonucleotide = UAUCUAGUCCAAACAAUAGAGUUUAUUUUUUCUUCAUCUGAACCAACAUGCUACAGUAGCUAAGAAGUAUUAAAACUAUAUACAUCCAUAUAAAGAUGAAAUAUGAACUA; value = 0.318
Oligonucleotide = AGCCUCCCGAAUAGCUGGGACUACAGGCGCACACCACCAUCCCCGGCUAAUUUUUGUAUUUUUUGUAGAGACGGGGUUUUGCCAUGUUGCCAAGGCUGGUUUCAAACUCC; value = 0.677
Oligonucleotide = CAAGUUCUCUGGGCAGGAAUUACAGCACCUGUCCCCUGCAAUGGCCCUGCUGUGUGAUGCUCAUCGCUUCCCUUCGUGCUGGAGCAGUCCCCCAGGUGUCCAUCUCCUAU; value = 0.274
Oligonucleotide = GUGUAUGGAAGGCGGGGCUCAUGGCUGAUUGGCAAUAAAAUGGCGGCUGCCGUUGUCAUUGUCUCCAUCUCAGGAUCUCACCUCAGAGACCCUUCCUCCCCUACCCCAAG; value = 0.258
Oligonucleotide = GACUUUCAUGUGGUAAAUAUGCAUUUGGUCUGUACUGAUCAUGGAAUAAACACAUCUCUCUUUUUUAUGCUGCUGUCUCCCUGAAAUUUCUUUGUGAAGCAACUAGGUAU; value = 0.567
Oligonucleotide = UGUGUACUUCUAAACAGAGAAGGCUUAUAAAAGUAAAUGCAUUAAGGCCAAGUGCAGUGGCUCACACCGGUAAUCCCAGCACUUUGGGAGGCCGAGGUGGGAGGAUUGCU; value = 1.5
Oligonucleotide = CAGAAUUGUAAUGUGUUUUCAUUUCUCUGUAGGAUUCACCUCUCACCAGCGUCUGUCUUAAAGGUAGGGCCAAUUUCAUGGAGCAUUUUUCUGUGUGUGUCCUUGUUGCU; value = 0.57
Oligonucleotide = CAUCCCCGCGGUUGAGGCUGUGGGGGCAGCAGAUCAGGAGCCCACUGAUAAGGGGCCCUAGGGUACAGGGUGCUGCCCAGCAGGUCGCCACCGAGUGUCUUCUCAUUUUA; value = 0.328
Oligonucleotide = UAGAGGAAAAGUUACUGGUGGUACCUUGCUGCCUGCUCUGCUGGUAGAAUUCUGUGCUCCCCGUGACACUUAGUACAUUAAGAAUGACUACACUGUUCCUCGUAUGUGAA; value = 0.272

Set 3 — technique: RNA Bind-n-Seq; form: RNA; medium: in vitro; tested at: not given; reference: input RNA pool; reading: higher = stronger binding; quantity: bound/input enrichment
Target: RING finger protein unkempt homolog, zinc fingers 1-6, GST-SBP tag (UNK, Homo sapiens, UniProt Q9C0B0, residues 30-357)
Setting: RNA with constant flanks, human and mouse sites, ends assumed
Shared flanks, not repeated: GGGAGUUCUACAGUCCGACGAUC … CAACAGAGGAUUGAGCAUCA
Construct (chain): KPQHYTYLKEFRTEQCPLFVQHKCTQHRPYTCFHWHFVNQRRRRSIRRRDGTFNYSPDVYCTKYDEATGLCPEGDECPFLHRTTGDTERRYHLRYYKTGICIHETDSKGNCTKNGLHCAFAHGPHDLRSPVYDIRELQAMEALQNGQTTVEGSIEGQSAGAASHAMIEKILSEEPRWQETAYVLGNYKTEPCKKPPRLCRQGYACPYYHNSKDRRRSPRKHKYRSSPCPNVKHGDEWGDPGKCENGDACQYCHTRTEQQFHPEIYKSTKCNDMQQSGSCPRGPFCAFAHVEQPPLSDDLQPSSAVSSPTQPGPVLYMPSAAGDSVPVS
Oligonucleotide = CGCUAUUGUGUUUCAACAAGAGACUUGCCCUCCCUGUUGUCUUCCACUGUACAUGCUGUAUAUAGGGGUCACGUGAUGCCGCUGAAGACAAGAAUAAACUGGAGUAGAUUAGUUUGCUGU; value = 0.269 ratio
Oligonucleotide = UAAACCAUGUCCCCAGGAAAUUUGAAAGGAAGCAGGUGCUGAAUGGAAUUUUUUUCCUUUUCCAUGAGCUGUGUUAAUUCUAUCUCCAGUAGGCCUAAUGCUUGAAUAAGCAAGAUGUCU; value = 0.636 ratio
Oligonucleotide = UAACUCUGGGACAGAAAAUACAGUCCUUCAUUUUUUUCCCUUUCCCUGUAAUCAGGAGGGGUAAGCCCUGCUCUUGCUCCCUGCCCUGUCUGGACAGGAGUGACGGGGACCCCACAGGAC; value = 0.13 ratio
Oligonucleotide = AAAGCAAUAAAUGUAGAUCUCCAGAGUGACGCUGCUCUGCAGGUGGACAUUUCAGACGCGCUCAGUGAGAGGGAUAGAGUCAAGUUCACCGUUCACACAAAGAGUUCAUUGCCAAAUUUU; value = 0.13 ratio
Oligonucleotide = ACUGGUGUGAUCAUUGUUGGACUGCAGGGGGAAGCUGAGCGUGGACCCCGCUUUCCCCGGGCUAGCAGUGAGGCUACGAUUCGUGAGAAUGCGCCCCCAGGGACUCCUAUUGUCUCCCCC; value = 0.127 ratio
Oligonucleotide = GCACUCUGAACUGCCGUAAACUGUAUAGCUUACUCAAACAUCUAAAGCUCUGCCACAGCAGGUUCAUCUUCAAUUACGUAUAUCAUCCAAAAGGUGCUAGGAUAGAUGUUUCAAUCAAUG; value = 0.95 ratio
Oligonucleotide = CCGUGCUCCAAAGUCAUCGUCCGGUUUCUCACUGUGAUGAUGAAGCAUGGUUACAUUGGCGAAUUUGAAAUCAUUGAUGACCACAGAGCUGGGAAAAUUGUUGUGAACCUCACAGGCAGG; value = 0.139 ratio
Oligonucleotide = UUGUUACUGGUUUUCUUUUUUUUUAAUGCUUCUGUUUUUAUCUCGCAAGUUGAUAUUGUACUUAGAUCUUAGCCAAAAACUUUUAUCUCUGAGAAAAAGUUUAAUAAAAAUGUACUAAAC; value = 1.75 ratio
Oligonucleotide = CGGAGCCCCCUGACCCAGGAACAGCUCAUCCCCAACUUGGCUAUGAAGGAGGUUAUUGACGCAUUCAUCUCUGAGAAUGGCUGGGUGGAGGACUACUGAGGUUCCCUGCCCUACCUGGCG; value = 0.0665 ratio
Oligonucleotide = AAGCGAUUAGCAGCUCAGUUUAUACCAAAAUUCUUUAAGCAUUUUCCAGAGCUGGCUGAUUCUGCUAUCAAUGCACAGUUAGACCUCUGUGAGGAUGAAGAUGUGUCAAUACGACGUCAA; value = 0.246 ratio
Oligonucleotide = GGGGAGGGGAUGGAGGAUAACCUCAUGAAAGGUGCCGUUUUCGGGUGAAACUUGACAUUUCUUUUAUACUUUACUCUUUUGAGAAGGAUUCUUUUUUUUUUUUUUUUUUUUUUUGAGUUG; value = 2.17 ratio

Set 4 — technique: aptamer microarray, sandwich; form: DNA with 2'F-ANA; medium: in vitro; tested at: 200 nM; together with: Cy3 exosite-II aptamer, 400 nM; reading: higher = stronger binding; quantity: mean fluorescence intensity; oligonucleotide: GGTTGGTGTGGTTGG
Target: Prothrombin, mature alpha-thrombin (F2, Homo sapiens, UniProt P00734)
Setting: whole 15-mer aptamer, many near background
Modification = 2'F-ANA at 1 5 10 14 15; value = 52.4 a.u.
Modification = 2'F-ANA at 1 2 4 7 11 14 15; value = 52.9 a.u.
Modification = 2'F-ANA at 4 5 8 9 11 12 14; value = 49.3 a.u.
Modification = 2'F-ANA at 1 2 7 12 13 15; value = 279 a.u.
Modification = 2'F-ANA at 4 7 8 9; value = 343 a.u.
Modification = 2'F-ANA at 1 3 4 7 8 10 12 13 14 15; value = 76.7 a.u.
Modification = 2'F-ANA at 1 3 8 12 13 15; value = 552 a.u.
Modification = 2'F-ANA at 1 2 5 7 8 10 11 12 14 15; value = 48.3 a.u.
Modification = 2'F-ANA at 1 4 5 6 7 8 9 10 12; value = 52.1 a.u.
Modification = 2'F-ANA at 4 5 6 7 8 14; value = 51.7 a.u.
Modification = 2'F-ANA at 5 6 9 11 12 14; value = 52.7 a.u.
Modification = 2'F-ANA at 1 2 6 9 10 12 14 15; value = 48.1 a.u.
Modification = 2'F-ANA at 1 3 5 6 7 9 10 12 15; value = 85.4 a.u.
Modification = 2'F-ANA at 2 9 11 14 15; value = 120 a.u.
Modification = 2'F-ANA at 1 4 5 6 10 11 13; value = 47.6 a.u.
Modification = 2'F-ANA at 1 2 4 5 8 9 11 12 14 15; value = 48.4 a.u.
Modification = 2'F-ANA at 4 5 6 9 10 13 14 15; value = 44.8 a.u.
Modification = 2'F-ANA at 5 7 9 11 12 14; value = 147 a.u.
Modification = 2'F-ANA at 3 4 5 8 9 10 11 15; value = 50.1 a.u.
Modification = 2'F-ANA at 2 4 5 9 11 12; value = 127 a.u.
Modification = 2'F-ANA at 3 4 5 9 10 11 12 14 15; value = 49.4 a.u.
Modification = 2'F-ANA at 2 8 9 10 11 14 15; value = 80.7 a.u.
Modification = 2'F-ANA at 1 2 4 7 8 13 14; value = 56.4 a.u.
Modification = 2'F-ANA at 1 2 3 6 7 12 13; value = 289 a.u.
Modification = 2'F-ANA at 1 2 3 5 8 9; value = 77.1 a.u.

A few entries again (set 2):
Oligonucleotide = CAAGUUCUCUGGGCAGGAAUUACAGCACCUGUCCCCUGCAAUGGCCCUGCUGUGUGAUGCUCAUCGCUUCCCUUCGUGCUGGAGCAGUCCCCCAGGUGUCCAUCUCCUAU; value = 0.274
Oligonucleotide = GUGUAUGGAAGGCGGGGCUCAUGGCUGAUUGGCAAUAAAAUGGCGGCUGCCGUUGUCAUUGUCUCCAUCUCAGGAUCUCACCUCAGAGACCCUUCCUCCCCUACCCCAAG; value = 0.258
Oligonucleotide = GACUUUCAUGUGGUAAAUAUGCAUUUGGUCUGUACUGAUCAUGGAAUAAACACAUCUCUCUUUUUUAUGCUGCUGUCUCCCUGAAAUUUCUUUGUGAAGCAACUAGGUAU; value = 0.567
Oligonucleotide = UGUGUACUUCUAAACAGAGAAGGCUUAUAAAAGUAAAUGCAUUAAGGCCAAGUGCAGUGGCUCACACCGGUAAUCCCAGCACUUUGGGAGGCCGAGGUGGGAGGAUUGCU; value = 1.5
Oligonucleotide = CAGAAUUGUAAUGUGUUUUCAUUUCUCUGUAGGAUUCACCUCUCACCAGCGUCUGUCUUAAAGGUAGGGCCAAUUUCAUGGAGCAUUUUUCUGUGUGUGUCCUUGUUGCU; value = 0.57
